{"data": "Measured values pooled from the literature", "note": "A part holds a random share of what one study measured."}
{"data": "Block 1", "target": "Ras GTPase-activating protein-binding protein 1, C-terminal RGG region (G3BP1, Homo sapiens, UniProt Q13283)", "method": "RNA Bind-n-Seq", "molecule type": "RNA", "matrix": "in vitro", "tested at": "1 µM", "setting": "whole 134-nt RNA, ends assumed", "added": "150 mM KCl", "relative to": "input library", "reading": "higher = stronger binding", "all sequences stand within": "GGGAGUUCUACAGUCCGACGAUC … UGGAAUUCUCGGGUGUCAAGG", "chain of UniProt Q13283 (whole entry, looked up)": "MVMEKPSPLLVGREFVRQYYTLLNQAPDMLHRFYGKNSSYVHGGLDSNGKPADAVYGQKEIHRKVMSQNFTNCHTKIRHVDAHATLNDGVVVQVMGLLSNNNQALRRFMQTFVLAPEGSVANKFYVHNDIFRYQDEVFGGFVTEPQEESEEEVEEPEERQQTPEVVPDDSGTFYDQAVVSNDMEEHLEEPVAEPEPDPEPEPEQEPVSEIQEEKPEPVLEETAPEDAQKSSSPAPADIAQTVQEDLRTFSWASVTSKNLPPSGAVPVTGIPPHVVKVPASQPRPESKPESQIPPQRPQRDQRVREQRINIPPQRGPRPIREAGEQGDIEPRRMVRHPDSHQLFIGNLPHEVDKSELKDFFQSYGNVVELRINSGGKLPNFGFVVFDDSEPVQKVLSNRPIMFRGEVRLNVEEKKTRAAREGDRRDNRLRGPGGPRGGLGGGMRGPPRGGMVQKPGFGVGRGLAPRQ"}
{"Oligonucleotide": "AAGUCCUGUGCUACACAUCGUAUGUACCGAAUCGGGGAGGGGAGGGGAAAAAGGGGAAAGUAUUAUGUUACGCCGUUCGGAUCUGCACUU", "log2 enrichment": 1.92}
{"Oligonucleotide": "CAAGUCCUGUGCUACACAUCGUAUGUACCGAAUCGGUUUUUUUGGAAAGGUUUGGAAAGUAUUAUGUUACGCCGUUCGGAUCUGCACUUC", "log2 enrichment": -2.06}
{"Oligonucleotide": "ACCCUGCAGGUGGGCAUCUUUGGGAAGUGGGGCAAGGGGGGGAUAGGGAGGGGGGUAACACUUUGGGAACAGGUGGUCCCAGGUCGUUUC", "log2 enrichment": -1.05}
{"Oligonucleotide": "UUCCUCAAGUCCUGUGCUACACAUCGUAUGUACCGAAUCGGAGGUGGUGGAAAGUAUUAUGUUACGCCGUUCGGAUCUGCACUUCCAGCA", "log2 enrichment": -1.14}
{"Oligonucleotide": "UCAAGUCCUGUGCUACACAUCGUAUGUACCGAAUCGGGCCCGGCCCGGCCCGGGGAAAGUAUUAUGUUACGCCGUUCGGAUCUGCACUUC", "log2 enrichment": -1.77}
{"Oligonucleotide": "CACAGACAACACGCACCCACACAGACACAGAGGGAAGGGGUUGGGAUGGGGACAGGGUGCACAGCAGGGCGGGUUAGGACCCCAGCCCCU", "log2 enrichment": -1.35}
{"Oligonucleotide": "CCUGUGCUACACAUCGUAUGUACCGAAUCGGGCCCCCCCGGGGCCCCCCCGGCCCCCCCGGAAAGUAUUAUGUUACGCCGUUCGGAUCUG", "log2 enrichment": -1.37}
{"Oligonucleotide": "CCUCAAGUCCUGUGCUACACAUCGUAUGUACCGAAUCGGGGUGGGGUGGUGGGAAAGUAUUAUGUUACGCCGUUCGGAUCUGCACUUCCA", "log2 enrichment": 0.658}
{"Oligonucleotide": "CAAGUCCUGUGCUACACAUCGUAUGUACCGAAUCGGAGGUUUUUGGUUUUUUUGGAAAGUAUUAUGUUACGCCGUUCGGAUCUGCACUUC", "log2 enrichment": -1.76}
{"data": "Block 2", "target": "RING finger protein unkempt homolog, zinc fingers 1-6, GST-SBP tag (UNK, Homo sapiens, UniProt Q9C0B0, residues 30-357)", "method": "RNA Bind-n-Seq", "molecule type": "RNA", "matrix": "in vitro", "tested at": "not given", "setting": "RNA with constant flanks, ends assumed", "relative to": "input RNA pool", "reading": "higher = stronger binding", "all sequences stand within": "GGGAGUUCUACAGUCCGACGAUC … CAACAGAGGAUUGAGCAUCA", "Construct (chain)": "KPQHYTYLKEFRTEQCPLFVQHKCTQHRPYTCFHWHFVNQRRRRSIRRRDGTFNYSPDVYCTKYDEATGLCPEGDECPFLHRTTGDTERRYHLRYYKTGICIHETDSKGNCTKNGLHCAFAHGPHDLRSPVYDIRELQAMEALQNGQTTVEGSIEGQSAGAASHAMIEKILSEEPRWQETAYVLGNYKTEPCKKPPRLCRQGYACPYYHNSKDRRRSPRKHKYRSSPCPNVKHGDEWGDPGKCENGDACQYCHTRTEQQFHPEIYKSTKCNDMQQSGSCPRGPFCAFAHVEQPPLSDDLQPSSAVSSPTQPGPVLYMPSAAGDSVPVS"}
{"Oligonucleotide": "UGGCUUACCAACUAUUAAACAUUCUACCCUAUAGUAGCUUACAGCAGCUGAGUUUCAUGAUACCGUCCUCACCGUCAUUAAAAUGUUCCUGUUCCCUUUUCACAACUUUUAGAUAAAAGG", "bound/input enrichment [ratio]": 2.78}
{"Oligonucleotide": "CAUCCAUUAUCUAUCUCCAUUUUCCAUUAUGGUACCUCUCAGAAGAGUGAGAGAGAGCUAUCCGAGAUUGUGAAGAAGAAUUUCGAUCUCCGCCCUGGGGUCAUUGUCAGGGAUCUGGAU", "bound/input enrichment [ratio]": 0.148}
{"Oligonucleotide": "GCUAGCCAGUCUGGAGCAACAUUCUUCAGCAUCUCUGCUUCAUCGUUGACUUCUAAGUGGGCCGGUGAGGGAGAAAAAAUGGUCCGUGCACUGUUUGCUGUUGCCAGGUGUCAGCAGCCA", "bound/input enrichment [ratio]": 0.125}
{"Oligonucleotide": "UAUCUUAUAUCACCUCUAGAUUUUGUACCUGAAGCCUUGUUUGGAAUUCUAGGCUUUCCCGAUGAUUUCUUUGUCAUCUUUUUAUUGCUUAUCUACAUCUCUAUUAUGUAUCGAGAAGUG", "bound/input enrichment [ratio]": 1.83}
{"Oligonucleotide": "UGCUACCAGACACUGACAGGGAUCAAGUUUGUGGUUCUAGCAGAUCCUAGGCAAGCUGGAACCGAUUCUCUUCUCCGAAAGAUUUAUGAGAUUUACUCAGACUUUGCCCUCAAGAAUCCA", "bound/input enrichment [ratio]": 0.0995}
{"Oligonucleotide": "GUGAGCUGUGUGCCUUGUUUGGGGGGUGUGGGGGACUUCUCCCAGUGGUGACACUGAACUUCCGGAGAAAAUGCGAAUGGGUAGGAGGACGGUCUUAUUUGAGUCACUUAAGGAGCAAGG", "bound/input enrichment [ratio]": 0.621}
{"Oligonucleotide": "CAUCAACAGUAUGUGCAACGUAUAGAGAAACAGUUUCUUUUGUAUGCCUACUGGACCGGCUCCGGAAUUUUGUCUUCUGUUGGGCUUGGAACAGGGCUGCACACCUUUCUGCUUUAUCUG", "bound/input enrichment [ratio]": 0.126}
{"Oligonucleotide": "UUGUUGGGAUCUAGGCUUCCUUACUUCUGGAGAAGUGGCCAUCCAACACCCACCUGUGCCACCGAGGGACAGGGCCUCCACAGCUGCCUCUGCUGCUUGUCCUGUCCCCUCAUACCAGAG", "bound/input enrichment [ratio]": 0.136}
{"data": "Block 3", "target": "Sal-like protein 4, full length isoform A (SALL4, Homo sapiens, UniProt Q9UJQ4, residues 1-1053)", "method": "universal PBM", "molecule type": "double-stranded DNA, one strand shown", "matrix": "in vitro", "tested at": "600 nM", "setting": "8-mer, flanks averaged, mean of replicates", "reading": "higher = stronger binding", "chain of UniProt Q9UJQ4 (whole entry, looked up)": "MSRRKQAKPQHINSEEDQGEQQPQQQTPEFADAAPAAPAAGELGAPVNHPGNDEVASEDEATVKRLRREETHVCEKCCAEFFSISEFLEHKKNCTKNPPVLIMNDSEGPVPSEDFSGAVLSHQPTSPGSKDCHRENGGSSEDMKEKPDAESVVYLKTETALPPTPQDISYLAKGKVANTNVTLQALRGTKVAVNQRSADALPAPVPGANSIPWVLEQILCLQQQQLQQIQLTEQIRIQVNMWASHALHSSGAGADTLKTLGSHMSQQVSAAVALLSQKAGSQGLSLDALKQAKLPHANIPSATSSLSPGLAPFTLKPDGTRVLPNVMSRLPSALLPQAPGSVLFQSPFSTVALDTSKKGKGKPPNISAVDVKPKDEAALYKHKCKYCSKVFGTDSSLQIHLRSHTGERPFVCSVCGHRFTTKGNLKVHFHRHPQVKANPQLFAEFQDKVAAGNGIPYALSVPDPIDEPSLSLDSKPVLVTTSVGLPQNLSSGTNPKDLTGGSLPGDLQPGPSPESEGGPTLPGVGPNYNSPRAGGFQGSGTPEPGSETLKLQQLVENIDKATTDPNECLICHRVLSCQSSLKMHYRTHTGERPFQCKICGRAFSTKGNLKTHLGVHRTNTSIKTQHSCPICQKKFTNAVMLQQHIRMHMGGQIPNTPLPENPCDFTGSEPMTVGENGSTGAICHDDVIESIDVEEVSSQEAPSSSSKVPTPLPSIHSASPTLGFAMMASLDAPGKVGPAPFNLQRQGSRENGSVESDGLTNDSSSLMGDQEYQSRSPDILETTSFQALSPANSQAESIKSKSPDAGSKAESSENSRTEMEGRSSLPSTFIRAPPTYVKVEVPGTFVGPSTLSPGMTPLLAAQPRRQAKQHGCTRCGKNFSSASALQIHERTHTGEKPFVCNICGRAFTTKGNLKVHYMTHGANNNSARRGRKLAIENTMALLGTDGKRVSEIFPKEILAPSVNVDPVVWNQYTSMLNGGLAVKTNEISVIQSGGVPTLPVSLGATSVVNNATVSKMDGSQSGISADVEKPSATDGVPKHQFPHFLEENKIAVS"}
{"Oligonucleotide": "AGAGGCTA", "E-score": -0.0607}
{"Oligonucleotide": "ACTTATGG", "E-score": 0.164}
{"Oligonucleotide": "ATGACTCG", "E-score": 0.0464}
{"Oligonucleotide": "ACGTAGTG", "E-score": -0.121}
{"Oligonucleotide": "ATCATGTC", "E-score": 0.084}
{"Oligonucleotide": "CTCTTTCA", "E-score": 0.133}
{"Oligonucleotide": "GGCGATAC", "E-score": -0.104}
{"Oligonucleotide": "GGCAACCA", "E-score": -0.158}
{"Oligonucleotide": "ATAACTCG", "E-score": 0.32}
{"Oligonucleotide": "CGTAATGC", "E-score": 0.0724}
{"Oligonucleotide": "CCACGTTA", "E-score": 0.164}
{"Oligonucleotide": "CTGTTGCC", "E-score": -0.147}
{"Oligonucleotide": "CCGTGTCG", "E-score": -0.33}
{"Oligonucleotide": "ATAGAAGG", "E-score": 0.0368}
{"Oligonucleotide": "ATTAGGTA", "E-score": 0.245}
{"Oligonucleotide": "AGCCGGGG", "E-score": -0.358}
{"Oligonucleotide": "ACCGGACT", "E-score": -0.188}
{"Oligonucleotide": "TCCGTAAA", "E-score": 0.0777}
{"Oligonucleotide": "GGATTTCA", "E-score": 0.122}
{"Oligonucleotide": "CGATATCC", "E-score": -0.00135}
{"Oligonucleotide": "AGATCGAG", "E-score": 0.0259}
{"Oligonucleotide": "AACAAGGT", "E-score": 0.0765}
{"Oligonucleotide": "CAAACCTA", "E-score": 0.0317}
{"Oligonucleotide": "AGACGAAG", "E-score": -0.0118}
{"Oligonucleotide": "CTTCTTTC", "E-score": 0.0393}
{"data": "Block 4", "target": "RNA binding protein fox-1 homolog 2, RRM domain, GST-SBP tag (RBFOX2, Homo sapiens, UniProt O43251-10, residues 100-194)", "method": "RNA Bind-n-Seq", "molecule type": "RNA", "matrix": "in vitro", "tested at": "365 nM", "setting": "natural RNA segment, single round, ends assumed", "relative to": "no-protein control", "reading": "higher = stronger binding", "all sequences stand within": "GGGAGUUCUACAGUCCGACGAUC … UGGAAUUCUCGGGUGCCAA", "Construct (chain)": "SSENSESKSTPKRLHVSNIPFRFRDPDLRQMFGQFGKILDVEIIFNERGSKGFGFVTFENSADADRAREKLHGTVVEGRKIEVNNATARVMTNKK"}
{"Oligonucleotide": "GAGGGGCCCUGCCGAGGCAUCAGCUGCUCUGCUCAGUUAGUUUUUAUUCCCGGGGUACCAAGCAGCUGCACAGUCGGUGCCUGGGAGGCACGUAGAGGCCCAGAGAGUCC", "RBNS enrichment (R)": 3.61}
{"Oligonucleotide": "ACACGAACAGCCUGAGAAGUCACUUUGGAACUAAAUUGCCUCGAUUUAUUUUGUGUAAGUAAGGGUUUGACCUAAAAAGAGCUCACGUGCACAUUAGCAAGUGUCCUCAU", "RBNS enrichment (R)": 0.296}
{"Oligonucleotide": "CCCCUGGAUUCCCAGCAGCACACGGAAGUCUGACUCUCAACUCCCCCCAAAGUGCCUGACUUUAGUGAACCUAGAGGUGAUGUGAGUAAUCCGCGCUGUUCUUUGCAGCA", "RBNS enrichment (R)": 0.398}
{"Oligonucleotide": "CCCUGCUGUAUCAUAAAGCACACACUUAGCGCUCUGGAGCCGGACGGUGGCUCCACCACUUCCGCAGGCCUGGAAACUUCCUUCUCCGGAGGACCUUUUACUAAAAGGUA", "RBNS enrichment (R)": 0.616}
{"Oligonucleotide": "AGUCUAUGGAUGUCUUGGCUCUGCUGUCCUGUACUUGCGUGUGUUUUAUUCCUAUUUAAUGUUAUUGACUAUAGCGGAUCUUUGAAAUCAGUGUUUUCCGUGUGAAUUUC", "RBNS enrichment (R)": 1.14}
{"Oligonucleotide": "AUUUAUGUAUUUUGUAUUCAAUGUGAGGCUUAUUAAAAAUAGUGAUUCUAAUGUAAGAAUCAGCUAAGAUGCAUUAUAUAUAUUUUAAUUAAAAUUAAAACUUCAGAUAU", "RBNS enrichment (R)": 0.75}
{"Oligonucleotide": "GAUAUAAUCCAGAAAUUGUUACUUCGGAGCAUGACAAUAGAUUUCUUUAACAAAGACUCAAGAUCAAAUUUCUUACCUAAAAGUUUAGGUUAACUGUUGACUCCUCAAGG", "RBNS enrichment (R)": 1.95}
{"Oligonucleotide": "UGAAUGAAUGGUCUUGCAUUUUAAAAGCUUAUGGGAAACUCAAUUUGAAAUGAUUAGAAAAUGUCAAGUAUUAUAAGCUGGUAUUUAAGAUGCUUGUAAAUACUAUUUAU", "RBNS enrichment (R)": 0.711}
{"note": "Some of these lines once more (block 4):"}
{"Oligonucleotide": "CCCUGCUGUAUCAUAAAGCACACACUUAGCGCUCUGGAGCCGGACGGUGGCUCCACCACUUCCGCAGGCCUGGAAACUUCCUUCUCCGGAGGACCUUUUACUAAAAGGUA", "RBNS enrichment (R)": 0.616}
{"Oligonucleotide": "GAUAUAAUCCAGAAAUUGUUACUUCGGAGCAUGACAAUAGAUUUCUUUAACAAAGACUCAAGAUCAAAUUUCUUACCUAAAAGUUUAGGUUAACUGUUGACUCCUCAAGG", "RBNS enrichment (R)": 1.95}
{"Oligonucleotide": "ACACGAACAGCCUGAGAAGUCACUUUGGAACUAAAUUGCCUCGAUUUAUUUUGUGUAAGUAAGGGUUUGACCUAAAAAGAGCUCACGUGCACAUUAGCAAGUGUCCUCAU", "RBNS enrichment (R)": 0.296}
{"Oligonucleotide": "AGUCUAUGGAUGUCUUGGCUCUGCUGUCCUGUACUUGCGUGUGUUUUAUUCCUAUUUAAUGUUAUUGACUAUAGCGGAUCUUUGAAAUCAGUGUUUUCCGUGUGAAUUUC", "RBNS enrichment (R)": 1.14}
{"Oligonucleotide": "GAGGGGCCCUGCCGAGGCAUCAGCUGCUCUGCUCAGUUAGUUUUUAUUCCCGGGGUACCAAGCAGCUGCACAGUCGGUGCCUGGGAGGCACGUAGAGGCCCAGAGAGUCC", "RBNS enrichment (R)": 3.61}
{"Oligonucleotide": "AUUUAUGUAUUUUGUAUUCAAUGUGAGGCUUAUUAAAAAUAGUGAUUCUAAUGUAAGAAUCAGCUAAGAUGCAUUAUAUAUAUUUUAAUUAAAAUUAAAACUUCAGAUAU", "RBNS enrichment (R)": 0.75}
{"Oligonucleotide": "UGAAUGAAUGGUCUUGCAUUUUAAAAGCUUAUGGGAAACUCAAUUUGAAAUGAUUAGAAAAUGUCAAGUAUUAUAAGCUGGUAUUUAAGAUGCUUGUAAAUACUAUUUAU", "RBNS enrichment (R)": 0.711}
